Experimental data pooled from the literature.
Protocols differ between the studies behind these lines. ± marks the error that the study gave.
rep papain-like protease: Replicase polyprotein 1ab, papain-like protease (rep, Severe acute respiratory syndrome coronavirus 2, UniProt P0DTD1)
rep main protease: Replicase polyprotein 1ab, main protease (rep, Severe acute respiratory syndrome coronavirus 2, UniProt P0DTD1)
rep nsp12 RdRp: Replicase polyprotein 1ab, nsp12 RdRp (rep, Severe acute respiratory syndrome coronavirus 2, UniProt P0DTD1)
OPRM1: Mu-type opioid receptor (OPRM1, Homo sapiens, UniProt P35372)
Chain of UniProt P35372 (whole entry, looked up): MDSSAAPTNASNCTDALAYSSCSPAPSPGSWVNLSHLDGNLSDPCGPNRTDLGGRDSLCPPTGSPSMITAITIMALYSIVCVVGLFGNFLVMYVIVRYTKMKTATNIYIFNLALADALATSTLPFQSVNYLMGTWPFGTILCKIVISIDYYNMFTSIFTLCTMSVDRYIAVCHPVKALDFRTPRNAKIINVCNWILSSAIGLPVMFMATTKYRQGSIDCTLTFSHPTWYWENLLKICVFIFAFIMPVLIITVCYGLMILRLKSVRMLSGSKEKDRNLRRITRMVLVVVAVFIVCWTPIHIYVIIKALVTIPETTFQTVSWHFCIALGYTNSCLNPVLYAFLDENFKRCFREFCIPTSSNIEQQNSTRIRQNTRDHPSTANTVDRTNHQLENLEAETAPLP

`COc1cc(O)ccc1CN(C)[C@H](C)c1cccc2ccccc12` gave an EC50 of over 60 µM (rep papain-like protease; enzyme activity in cells, inhibitor).
`Cc1ccc(OCCN(C)C)cc1C(=O)N[C@H](C)c1cc(-c2cnn(C)c2)cc(-c2cnn(CC(F)(F)F)c2)c1` gave an EC50 of 2.4 ± 0.4 µM (rep papain-like protease; protease activity, inhibitor, FlipGFP; SARS-CoV-2).
`CCCCCCCCCCCCCCCC(=O)N[C@@H](CCC(=O)NCCOCCOCCC(=O)NCCOCCOCCC(=O)NCCCC[C@H](NC(=O)[C@H](CC(=O)O)NC(=O)[C@H](CC(C)C)NC(=O)[C@H](Cc1ccc(O)cc1)NC(=O)[C@H](CCCCN)NC(=O)[C@H](CO)NC(=O)[C@H](Cc1ccc(O)cc1)NC(=O)[C@H](CC(=O)O)NC(=O)[C@H](CO)NC(=O)[C@@H](NC(=O)[C@H](Cc1ccccc1)NC(=O)[C@@H](NC(=O)CNC(=O)[C@H](CCC(N)=O)NC(=O)[C@@H](CO)NC(=O)[C@@H](N)Cc1c[nH]cn1)[C@@H](C)O)[C@@H](C)O)C(=O)N[C@@H](CCCNC(=N)N)C(=O)N[C@@H](CCCNC(=N)N)C(=O)N[C@@H](C)C(=O)N[C@@H](CCC(N)=O)C(=O)N[C@@H](CC(=O)O)C(=O)N[C@@H](Cc1ccccc1)C(=O)N[C@H](C(=O)N[C@@H](CCC(N)=O)C(=O)N[C@@H](Cc1c[nH]c2ccccc12)C(=O)N[C@@H](CC(C)C)C(=O)N[C@@H](CC(C)C)C(=O)N[C@@H](CC(N)=O)C(=O)N[C@H](C(=O)NCC(=O)NCC(=O)N1CCC[C@H]1C(=O)N[C@@H](CO)C(=O)N[C@@H](CO)C(=O)NCC(=O)N[C@@H](C)C(=O)N1CCC[C@H]1C(=O)N1CCC[C@H]1C(=O)N1CCC[C@H]1C(=O)N[C@@H](CO)C(N)=O)[C@@H](C)O)C(C)C)C(=O)O` has a Tmax of 2.67 ± 1.03 h (rhesus monkey; subcutaneous, 60 µg/kg, single dose).
For `Cc1ccc(OCCN(C)C)cc1C(=O)N[C@H](C)c1cc(-c2cnn(C)c2)cc(-c2cncs2)c1`, the EC50 was 1.3 ± 0.3 µM (rep papain-like protease; protease activity, inhibitor, FlipGFP; SARS-CoV-2).
`CC(=O)N[C@@H](Cc1ccc(O)cc1)C(=O)N[C@@H](CC(=O)O)C(=O)N[C@H]1CCC[C@@H]1C(=O)N[C@@H](Cc1ccccc1)C(=O)N[C@@H](Cc1ccc(O)cc1)C(=O)N[C@H]1CCC[C@@H]1C(=O)N[C@@H](Cc1ccc(O)cc1)C(=O)N[C@H](C(=O)N[C@H](C(=O)N[C@@H](Cc1ccccc1)C(=O)N[C@@H](Cc1c[nH]cn1)C(=O)N[C@H](C(=O)N[C@@H](C)C(=O)N[C@H](C(N)=O)[C@@H](C)O)C(C)C)[C@@H](C)O)C(C)C` has a Kd of 0.0295 µM (rep main protease; binding, SPR).
For `CC[C@H](C)[C@H](NC(=O)[C@H](CCCCN)NC(=O)[C@H](Cc1c[nH]c2ccccc12)NC(=O)[C@H](CC(C)C)NC(=O)[C@H](CC(C)C)NC(=O)[C@H](CC(=O)O)NC(=O)[C@@H](NC(=O)[C@H](CCCNC(=N)N)NC(=O)[C@H](CCC(=O)O)NC(=O)[C@H](CCCNC(=N)N)NC(=O)[C@H](CC(=O)O)NC(=O)[C@H](CC(C)C)NC(C)=O)[C@@H](C)CC)C(=O)N[C@@H](C)C(=O)N[C@@H](CCCNC(=N)N)C(=O)N[C@@H](C)C(=O)NCC(=O)N[C@@H](C)C(=O)N[C@@H](CCCNC(=N)N)C(=O)N[C@@H](CO)C(=O)N[C@@H](C)C(=O)N[C@H](C(=O)NCC(N)=O)C(C)C`, the Kd was 2100 ± 600 µM (membrane partitioning, tryptophan fluorescence; POPC:POPG:cholesterol SUV; pH 7.5, 25 °C, first transition).
The IC50 of `N#Cc1ccccc1C[C@@H](N)C(=O)N[C@H](Cc1ccc(Cl)cc1Cl)C(=O)N[C@H](CC(=O)Nc1nnc(N)[nH]1)Cc1ccc(F)cc1` is reported as 8 µM (rep main protease; enzyme activity, inhibitor, fluorescence).
`Cc1cccc(NC(=O)CSc2c[nH]c3ccccc23)c1` gave an EC50 of 2.53 µM (rep nsp12 RdRp; SARS-CoV-2 RdRp (nsp12/7/8) activity, inhibitor; HEK293T; 24 h).
The EC50 of `C[C@H](c1cccc2ccccc12)N(C)Cc1cccc2[nH]ccc12` is reported as under 10 µM (rep papain-like protease; enzyme activity in cells, inhibitor).
With `CC(C)C[C@H](NC(=O)[C@H](CO)NC(=O)[C@H](CCCCN)NC(=O)[C@H](CC(C)C)NC(=O)[C@H](C)NC(=O)[C@H](CCCCN)NC(=O)[C@H](CCC(=O)O)NC(=O)CNC(=O)[C@H](CC(C)C)NC(=O)[C@H](CC(N)=O)NC(=O)[C@@H]1CCCN1C(=O)[C@H](CC(C)C)NC(=O)[C@H](Cc1ccccc1)NC(=O)CNC(=O)[C@H](NC(=O)[C@@H](N)Cc1ccc(O)cc1)[C@H](C)O)C(N)=O` the Ki was 0.013 ± 0.0012 µM (OPRM1; radioligand displacement; CHO membranes; 60 min, pH 7.5, 25 °C, added: 0.25 nM [3H]DAMGO).
For `Cc1ccc(OCCN(C)C)cc1C(=O)N[C@H](C)c1cc(-c2cnn(C)c2)cc(-c2cnn(C3CC3)c2)c1`, the EC50 was 0.6 ± 0.1 µM (rep papain-like protease; protease activity, inhibitor, FlipGFP; SARS-CoV-2).
For `CC(=O)N[C@H](Cc1ccc(O)cc1)C(=O)N[C@@H](CCCNC(=N)N)C(=O)N[C@@H](Cc1ccccc1)C(=O)N[C@H]1CCC[C@@H]1C(=O)N[C@@H](CCCNC(=N)N)C(=O)N[C@@H](CC(N)=O)C(=O)N[C@H]1CCC[C@@H]1C(=O)N[C@H](C(=O)N[C@@H](Cc1ccccc1)C(=O)N[C@H]1CCC[C@@H]1C(=O)N[C@@H](Cc1ccccc1)C(=O)N[C@@H](Cc1ccc(O)cc1)C(=O)N[C@H]1CCC[C@@H]1C(=O)N[C@H](C(=O)N[C@@H](CC(=O)O)C(N)=O)[C@@H](C)O)C(C)C`, the Kd was 0.00883 µM (rep main protease; binding, SPR).
`CC(C)C[C@H](NC(=O)[C@H](CO[C@@H]1O[C@H](CO)[C@@H](O)[C@H](O)[C@H]1O)NC(=O)[C@H](CCCCN)NC(=O)[C@H](CC(C)C)NC(=O)CNC(=O)[C@H](CCCCN)NC(=O)[C@H](CCC(=O)O)NC(=O)CNC(=O)[C@H](CC(C)C)NC(=O)[C@H](CC(N)=O)NC(=O)[C@@H]1CCCN1C(=O)[C@H](CC(C)C)NC(=O)[C@H](Cc1ccccc1)NC(=O)CNC(=O)[C@H](NC(=O)[C@@H](N)Cc1ccc(O)cc1)[C@H](C)O)C(N)=O` gave a Ki of 0.0035 ± 0.00055 µM (OPRM1; radioligand displacement; CHO membranes; 60 min, pH 7.5, 25 °C, added: 0.25 nM [3H]DAMGO).
For `O=C(/C=C/c1ccc(O)c(O)c1)O[C@@H]1Cc2c(O)cc(O)cc2O[C@@H]1c1ccc(O)c(O)c1`, the Kd was 3.6 µM (rep main protease; binding, SPR).
The EC50 of `CCOc1cccc(NC(=O)CSc2cn(C(=O)OC(C)(C)C)c3ccccc23)c1` is reported as 1.18 µM (rep nsp12 RdRp; viral replication, refers to: Gaussia luciferase; A549, SARS-CoV-2; 72 h).

A few entries again:
`CC(=O)N[C@@H](Cc1ccc(O)cc1)C(=O)N[C@@H](CC(=O)O)C(=O)N[C@H]1CCC[C@@H]1C(=O)N[C@@H](Cc1ccccc1)C(=O)N[C@@H](Cc1ccc(O)cc1)C(=O)N[C@H]1CCC[C@@H]1C(=O)N[C@@H](Cc1ccc(O)cc1)C(=O)N[C@H](C(=O)N[C@H](C(=O)N[C@@H](Cc1ccccc1)C(=O)N[C@@H](Cc1c[nH]cn1)C(=O)N[C@H](C(=O)N[C@@H](C)C(=O)N[C@H](C(N)=O)[C@@H](C)O)C(C)C)[C@@H](C)O)C(C)C` has a Kd of 0.0295 µM (rep main protease; binding, SPR).
For `CC[C@H](C)[C@H](NC(=O)[C@H](CCCCN)NC(=O)[C@H](Cc1c[nH]c2ccccc12)NC(=O)[C@H](CC(C)C)NC(=O)[C@H](CC(C)C)NC(=O)[C@H](CC(=O)O)NC(=O)[C@@H](NC(=O)[C@H](CCCNC(=N)N)NC(=O)[C@H](CCC(=O)O)NC(=O)[C@H](CCCNC(=N)N)NC(=O)[C@H](CC(=O)O)NC(=O)[C@H](CC(C)C)NC(C)=O)[C@@H](C)CC)C(=O)N[C@@H](C)C(=O)N[C@@H](CCCNC(=N)N)C(=O)N[C@@H](C)C(=O)NCC(=O)N[C@@H](C)C(=O)N[C@@H](CCCNC(=N)N)C(=O)N[C@@H](CO)C(=O)N[C@@H](C)C(=O)N[C@H](C(=O)NCC(N)=O)C(C)C`, the Kd was 2100 ± 600 µM (membrane partitioning, tryptophan fluorescence; POPC:POPG:cholesterol SUV; pH 7.5, 25 °C, first transition).
